Published values of several laboratories.
Lines come from different studies, so protocols differ. ± gives the spread as reported.
UniProt P06241, sequence (whole entry, looked up): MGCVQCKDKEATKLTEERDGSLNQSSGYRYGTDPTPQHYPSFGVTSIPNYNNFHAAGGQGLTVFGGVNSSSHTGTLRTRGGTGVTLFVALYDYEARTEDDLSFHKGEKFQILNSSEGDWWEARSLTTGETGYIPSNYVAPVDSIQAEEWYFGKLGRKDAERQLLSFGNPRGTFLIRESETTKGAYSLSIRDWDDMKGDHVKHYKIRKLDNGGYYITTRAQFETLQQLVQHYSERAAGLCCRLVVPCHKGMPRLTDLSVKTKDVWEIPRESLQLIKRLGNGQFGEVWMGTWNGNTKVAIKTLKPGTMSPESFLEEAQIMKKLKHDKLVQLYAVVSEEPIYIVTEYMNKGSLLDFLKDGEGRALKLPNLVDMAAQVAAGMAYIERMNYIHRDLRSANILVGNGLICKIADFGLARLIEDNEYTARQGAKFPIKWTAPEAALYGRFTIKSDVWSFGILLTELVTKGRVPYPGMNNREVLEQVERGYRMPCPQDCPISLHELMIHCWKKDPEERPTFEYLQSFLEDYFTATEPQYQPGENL

O=C1NC2(CC2)COc2ncc(F)cc2[C@H]2COCCN2c2ccn3ncc1c3n2  organ-to-brain weight ratio (Sprague-Dawley rat, male, heart; oral, 2.5 mg/kg/day, 4 weeks, end of treatment): 73.5 ± 8.01%
CC(C)C[C@H](NC(=O)[C@H](CC(=O)O)NC(=O)[C@@H](NC(=O)[C@H](CCC(=O)O)NC(=O)[C@H](CCCCN)NC(=O)[C@H](Cc1ccc(O)cc1)NC(=O)[C@H](CCCCN)NC(=O)[C@H](Cc1c[nH]cn1)NC(=O)CNC(=O)CN)[C@@H](C)O)C(N)=O  IC50 (hepatitis C virus; viral replication, luciferase reporter; Huh-7 ET replicon; 72 h): 2.17 µM
CC[C@H](C)[C@H](NC(=O)[C@H](Cc1c[nH]c2ccccc12)NC(=O)c1ccccc1)C(=O)N[C@@H](CCCNC(=N)N)C(=O)N[C@@H](Cc1ccc(O)cc1)C(=O)N[C@@H](CCCCN)C(=O)N[C@@H](Cc1c[nH]c2ccccc12)C(=O)N1CCC[C@@H]1C(=O)N[C@@H](CCCNC(=N)N)C(=O)N[C@@H](CCCCN)C(=O)N[C@H](C(=O)N[C@H](C(=O)N[C@@H](CCCNC(=N)N)C(=O)N[C@@H](Cc1ccc(O)cc1)C(=O)N[C@@H](Cc1c[nH]c2ccccc12)C(=O)N[C@H](C(=O)NCC(=O)N1CCC[C@H]1C(N)=O)[C@@H](C)O)C(C)C)C(C)C  IC50 (Corynebacterium glutamicum; growth; ATCC 13032): 0.01 µM
Cc1cc(N2CCC(C#N)(C3(C)CC3)C2=O)cc(C(=O)NCc2cc(F)cc(-c3cnn(C)c3)c2)n1 (racemic)  IC50 (Plasmodium falciparum; parasite growth; compound-resistant Dd2-B2 bulk 1_Bulk_10e5_A2): 0.073 µM
Oc1c(Br)cc(Br)c2nc3cc(C(F)(F)F)ccc3nc12  IC50 (Acinetobacter baumannii; microbial growth; 19606): 3.1 µM
CC[C@H](C)[C@H](NC(=O)[C@H](Cc1c[nH]c2ccccc12)NC(=O)c1ccccc1)C(=O)N[C@H](C(=O)N[C@@H](Cc1ccc(O)cc1)C(=O)N[C@@H](CCCCN)C(=O)N[C@@H](Cc1c[nH]c2ccccc12)C(=O)N1CCC[C@@H]1C(=O)N[C@@H](CCCNC(=N)N)C(=O)N[C@@H](CCCCN)C(=O)N[C@H](C(=O)N[C@H](C(=O)N[C@@H](CCCNC(=N)N)C(=O)N[C@@H](Cc1ccc(O)cc1)C(=O)N[C@@H](Cc1c[nH]c2ccccc12)C(=O)N[C@H](C(=O)NCC(=O)N[C@@H](CCCCN)C(=O)N[C@@H](CCCNC(=N)N)C(N)=O)[C@@H](C)O)C(C)C)C(C)C)C(C)C  IC50 (Corynebacterium glutamicum; growth; ATCC 13032): 0.04 µM
COC(=O)C1=CO[C@@H](C)[C@@H]2Cn3ccc4c5ccccc5nc-4c3C[C@H]12  IC50 (Plasmodium falciparum; growth; C2B, atovaquone-resistant; 72 h): 0.113 ± 0.029 µM
C[C@@H](O)[C@H](NC(=O)[C@H](Cc1c[nH]c2ccccc12)NC(=O)[C@H](CCCNC(=N)N)NC(=O)[C@H](Cc1c[nH]c2ccccc12)NC(=O)[C@H](CCCNC(=N)N)NC(=O)CNC(=O)[C@@H](NC(=O)[C@H](CCCNC(=N)N)NC(=O)[C@H](CCCNC(=N)N)NC(=O)[C@H](CC(N)=O)NC(=O)[C@H](Cc1c[nH]c2ccccc12)NC(=O)[C@H](CCCNC(=N)N)NC(=O)[C@H](Cc1c[nH]c2ccccc12)NC(=O)c1ccccc1)[C@@H](C)O)C(=O)NCC(=O)N1CCC[C@H]1C(N)=O  IC50 (Corynebacterium glutamicum; growth; ATCC 13032): 0.02 µM
NCC(=O)NCC(=O)N[C@@H](Cc1c[nH]cn1)C(=O)O  IC50 (hepatitis C virus; viral replication, luciferase reporter; Huh-7 ET replicon; 72 h): > 100 µM
CCCCCCCCCCCCCCC[C@@H](O)[C@H](CO)NC(=O)N[C@@H](CC(C)C)C(=O)N[C@@H](CCC(=O)O)C(=O)N[C@@H](CCC(N)=O)C(=O)N[C@@H](CC(C)C)C(=O)N[C@@H](CO)C(=O)N[C@H](C(=O)N[C@@H](Cc1c[nH]c2ccccc12)C(=O)NCC(=O)N[C@@H](CO)C(=O)N[C@@H](CCCCN)C(=O)N[C@@H](CCC(N)=O)C(=O)N[C@@H](CC(N)=O)C(=O)N[C@@H](CCC(N)=O)C(=O)N[C@@H](C)C(=O)N[C@@H](CCCNC(=N)N)C(=O)N[C@@H](CCCNC(=N)N)C(=O)N[C@@H](CC(C)C)C(N)=O)C(C)C  IC50 (HIV-1 HXB2; viral infection, luciferase reporter; TZM-bl): > 4 µM
CC[C@H](C)[C@H](NC(=O)[C@H](Cc1c[nH]c2ccccc12)NC(=O)c1ccccc1)C(=O)N[C@@H](CCCNC(=N)N)C(=O)N[C@@H](Cc1ccc(O)cc1)C(=O)N[C@@H](CCCCN)C(=O)N[C@@H](Cc1c[nH]c2ccccc12)C(=O)N1CCC[C@@H]1C(=O)N[C@@H](CCCNC(=N)N)C(=O)N[C@@H](CCCCN)C(=O)N[C@@H](CCCCN)C(=O)N[C@H](C(=O)N[C@@H](CCCNC(=N)N)C(=O)N[C@@H](Cc1ccc(O)cc1)C(=O)N[C@@H](Cc1c[nH]c2ccccc12)C(=O)N[C@H](C(=O)NCC(=O)N1CCC[C@H]1C(N)=O)[C@@H](C)O)C(C)C  IC50 (Corynebacterium glutamicum; growth; ATCC 13032): 0.1 µM
CC(=O)O[C@H]1C[C@H](O[C@H]2[C@@H](O)C[C@H](O[C@H]3[C@@H](O)C[C@H](O[C@H]4CC[C@@]5(C)[C@H](CC[C@@H]6[C@@H]5C[C@@H](O)[C@]5(C)[C@@H](C7=CC(=O)OC7)CC[C@]65O)C4)O[C@@H]3C)O[C@@H]2C)O[C@H](C)[C@H]1O[C@@H]1O[C@H](CO)[C@@H](O)[C@H](O)[C@H]1O  IC50 (human alphaherpesvirus 1; K26 GFP, 3D adult human skin air-liquid interface; 48 h): 0.14 µM
CC(C)(C)C(=O)OCOP(=O)(OCOC(=O)C(C)(C)C)C1CCCN(O)C1=O (stereo not drawn)  CC50 (OVCAR-4): > 100 µM
O=C(Oc1cc(OC(=O)c2cc(O)c(O)c(O)c2)c2ccccc2c1)c1cc(O)c(O)c(O)c1  IC50 (human alphaherpesvirus 2; viral replication, RT-qPCR; HeLa, acyclovir-resistant): 1.03 ± 0.3 µM
COc1ccccc1-c1n[nH]c2nc(NC3CCN(C(=O)Cc4ccc(F)cc4F)CC3)ncc12  relative abundance (bead binding, competition bead pull-down, refers to: LMJF.02.0460; Leishmania donovani axenic amastigote extract; 10 µM; reference: vehicle): 0.86
CC[C@H](C)[C@H](NC(=O)CNC(=O)[C@H](Cc1c[nH]c2ccccc12)NC(=O)[C@@H](NC(=O)[C@@H](NC(=O)[C@H](CC(C)C)NC(=O)[C@H](CCC(N)=O)NC(=O)[C@H](CC(C)C)NC(=O)[C@@H](N)CC(C)C)[C@@H](C)O)C(C)C)C(=O)N[C@@H](CCCCN)C(=O)N[C@@H](CCC(N)=O)C(=O)N[C@@H](CC(C)C)C(=O)N[C@@H](CCC(N)=O)C(=O)N[C@@H](C)C(=O)N[C@@H](CCCNC(=N)N)C(=O)N[C@H](C(=O)N[C@@H](CC(C)C)C(=O)N[C@@H](CCCCN)C(N)=O)[C@@H](C)CC  IC50 (HIV-1 HXB2; viral infection, luciferase reporter; TZM-bl): > 4 µM
CS(C)(=O)=Nc1ccc(-c2ccc(-c3nc4cc(O[C@@H]5CO[C@H]6[C@@H]5OC[C@H]6O)[nH]c4cc3F)cc2)cc1  inhibition (Tyrosine-protein kinase Fyn (FYN, Homo sapiens, UniProt P06241); enzyme activity, inhibitor; 10 µM): 3%
CCCCCCCCCCCCCCC[C@@H](O)[C@H](CO)NC(=O)N[C@@H](CC(C)C)C(=O)N[C@@H](CCC(N)=O)C(=O)N[C@@H](C)C(=O)N[C@@H](CCCNC(=N)N)C(=O)N[C@H](C(=O)N[C@@H](CC(C)C)C(=O)N[C@@H](C)C(=O)N[C@H](C(=O)N[C@@H](CCC(=O)O)C(=O)N[C@@H](CCCNC(=N)N)C(=O)N[C@@H](Cc1ccc(O)cc1)C(=O)N[C@@H](CC(C)C)C(=O)N[C@@H](CCCCN)C(=O)N[C@@H](CC(=O)O)C(=O)N[C@@H](CCC(N)=O)C(=O)N[C@@H](CCC(N)=O)C(=O)N[C@@H](CC(C)C)C(N)=O)C(C)C)[C@@H](C)CC  IC50 (HIV-1 HXB2; viral infection, luciferase reporter; TZM-bl): 0.886 ± 0.102 µM
C=CC(=O)N1CC/C(=C\c2ccc(F)c([N+](=O)[O-])c2)C(=O)/C(=C/c2ccc(F)c([N+](=O)[O-])c2)C1  IC50 (human alphaherpesvirus 1; K26 GFP, 3D adult human skin submerged; 48 h): > 10 µM
CCCCCCCCCCCCCCC[C@@H](O)[C@H](CO)NC(=O)NCCCC[C@H](NC(=O)[C@H](CC(C)C)NC(=O)[C@@H](NC(=O)[C@H](CCCNC(=N)N)NC(=O)[C@H](C)NC(=O)[C@H](CCC(N)=O)NC(=O)[C@H](CC(C)C)NC(=O)[C@H](CCC(N)=O)NC(=O)[C@H](CCCCN)NC(=O)[C@@H](NC(=O)CNC(=O)[C@H](Cc1c[nH]c2ccccc12)NC(=O)[C@@H](NC(=O)[C@@H](NC(=O)[C@H](CC(C)C)NC(=O)[C@H](CCC(N)=O)NC(=O)[C@H](CC(C)C)NC(=O)[C@@H](N)CC(C)C)[C@@H](C)O)C(C)C)[C@@H](C)CC)[C@@H](C)CC)C(N)=O  IC50 (HIV-1 HXB2; viral infection, luciferase reporter; TZM-bl): 0.291 ± 0.102 µM
NCCC[C@@H]1NC(=O)[C@@H](CCCN)NC(=O)[C@H](Cc2ccccc2)NC(=O)[C@@H](Cc2cccc(F)c2)NC(=O)[C@H](Cc2ccccc2)NC(=O)[C@@H](CCCN)NC1=O  IC50 (Balamuthia mandrillaris; parasite growth, ATP luminescence): 14.1 µM

For quick reference, copied from above:
NCC(=O)NCC(=O)N[C@@H](Cc1c[nH]cn1)C(=O)O  IC50 (hepatitis C virus; viral replication, luciferase reporter; Huh-7 ET replicon; 72 h): > 100 µM
Cc1cc(N2CCC(C#N)(C3(C)CC3)C2=O)cc(C(=O)NCc2cc(F)cc(-c3cnn(C)c3)c2)n1 (racemic)  IC50 (Plasmodium falciparum; parasite growth; compound-resistant Dd2-B2 bulk 1_Bulk_10e5_A2): 0.073 µM
Oc1c(Br)cc(Br)c2nc3cc(C(F)(F)F)ccc3nc12  IC50 (Acinetobacter baumannii; microbial growth; 19606): 3.1 µM
